Results pooled from the literature.
Protocols differ between the studies behind these lines. Values joined by “and” are separate records of one study, mostly repeats; a detail may differ. ± marks the error that the study gave.

| SMILES | target or system | assay | test system | conditions | scale | measurement | value |
| --- | --- | --- | --- | --- | --- | --- | --- |
| Cc1ccc(OC[C@@H]2CCCN2C)cc1C(=O)N[C@H](C)c1cc(-c2cnn(C)c2)nc2ccccc12 | African green monkey cells |  |  | 125 µM |  | viability | 4.9% |
| CCCCCCCCCCCCCC(=O)N[C@H](CCN)C(=O)N[C@@H]1C(=O)N[C@@H](CCN)C(=O)N[C@@H](CC(C)C)C(=O)N[C@@H](CCN)C(=O)N[C@H](Cc2ccccc2)C(=O)N[C@@H](CC(C)C)C(=O)N[C@@H](CCN)C(=O)N[C@H](CCN)C(=O)N[C@@H](C(C)C)C(=O)N[C@@H](CC(=O)O)C(=O)O[C@@H]1C |  |  | rat, plasma | intravenous, 5 mg/kg |  | C0 | 28100 ng/mL |
| O=C1NC2(CC2)COc2ncc(F)cc2[C@H]2COCCN2c2ccn3ncc1c3n2 |  |  | Sprague-Dawley rat, male, serum | oral, 2.5 mg/kg/day, end of treatment, 4-week subacute toxicity |  | serum potassium | 4.44 ± 0.18 mmol/L |
| COc1ccc(CNc2ccc3c(c2)S(=O)(=O)C=C3)cc1 |  |  | male C57BL/6 mice, blood | intraperitoneal, 10 mg/kg, day 8, group average |  | mean corpuscular volume | 55 fL |
| CCN(Cc1ccccc1)C(=O)CCc1nc(CN2CCN(C(=O)Cc3ccc(OC)c(OC)c3)CC2)no1 |  | rotarod test | mouse, CCI neuropathic pain model | 5 mg/kg |  | time to fall | 1.56 ± 0.18 min |
| Cc1ccc(OCCN(C)C)cc1C(=O)N[C@H](C)c1cc(-c2cccs2)nc2ccccc12 | Vero E6 |  |  | 7.812 µM |  | viability | 93.1% and 90.4% |
| CC[C@H](C)[C@H](NC(=O)[C@H](CCCCN)NC(=O)CNC(=O)[C@H](CC(C)C)NC(=O)[C@H](Cc1ccccc1)NC(=O)[C@H](CCCCN)NC(=O)[C@H](CO)NC(=O)[C@H](Cc1ccccc1)NC(=O)[C@H](Cc1c[nH]c2ccccc12)NC(=O)[C@H](CCC(N)=O)NC(=O)[C@@H](NC(=O)[C@H](Cc1ccccc1)NC(=O)CCCCCNC(=O)CN1CCN(CC(=O)O)CCN(CC(=O)O)CCN(CC(=O)O)CC1)C(C)C)C(=O)N[C@@H](CCC(=O)O)C(=O)N1CCC[C@H]1C(=O)N[C@@H](CC(=O)O)C(=O)N[C@H](C(=O)N[C@@H](CO)C(=O)N[C@@H](CCC(N)=O)C(=O)N[C@H](C(=O)N[C@@H](CCC(N)=O)C(=O)N[C@@H](CC(=O)O)C(=O)N1CCC[C@H]1C(=O)N[C@@H](CC(N)=O)C(=O)N[C@@H](CC(=O)O)C(=O)N[C@@H](CCC(N)=O)C(=O)N[C@@H](Cc1ccc(O)cc1)C(=O)N[C@@H](CCC(=O)O)C(=O)N1CCC[C@H]1C(=O)N[C@@H](Cc1ccccc1)C(=O)O)C(C)C)C(C)C [copper-64 labelled] |  | dynamic PET | mouse, CT26 tumour, checkpoint inhibitor-treated, tumour | intravenous, 100 µCi/mouse, 1980 s |  | SUVmean | 4.27 SUV |
| Cc1ccccc1-c1ccc(-c2nc(-c3ccc(CN(C)CCCC(=O)O)c([18F])c3)no2)cc1C(F)(F)F |  |  | rat, kidney | 30 min |  | tracer uptake | 1.19 %ID/g |
| CSCC[C@H](N)C(=O)N[C@@H](C)C(=O)N[C@@H](Cc1c[nH]c2ccccc12)C(=O)N[C@@H](Cc1c[nH]cn1)C(=O)N[C@@H](CC(=O)O)C(=O)N[C@@H](CC(=O)O)C(=O)N[C@@H](CCC(=O)O)C(=O)N[C@@H](CCC(=O)O)C(=O)N[C@@H](Cc1ccccc1)C(=O)N[C@@H](C)C(=O)N[C@@H](CCCNC(=N)N)C(=O)N[C@@H](CCCNC(=N)N)C(=O)N[C@@H](CCCNC(=N)N)C(=O)N[C@@H](CCCNC(=N)N)C(=O)NCCCCCC(=O)NCCCCC(NC(=O)CCCCCNC(=O)[C@H](CCCNC(=N)N)NC(=O)[C@H](CCCNC(=N)N)NC(=O)[C@H](CCCNC(=N)N)NC(=O)[C@H](CCCNC(=N)N)NC(=O)[C@H](C)NC(=O)[C@H](Cc1ccccc1)NC(=O)[C@H](CCC(=O)O)NC(=O)[C@H](CCC(=O)O)NC(=O)[C@H](CC(=O)O)NC(=O)[C@H](CC(=O)O)NC(=O)[C@H](Cc1c[nH]cn1)NC(=O)[C@H](Cc1c[nH]c2ccccc12)NC(=O)[C@H](C)NC(=O)[C@@H](N)CCSC)C(=O)NCCCCC(NC(=O)C(CCCCNC(=O)CCCCCNC(=O)[C@H](CCCNC(=N)N)NC(=O)[C@H](CCCNC(=N)N)NC(=O)[C@H](CCCNC(=N)N)NC(=O)[C@H](CCCNC(=N)N)NC(=O)[C@H](C)NC(=O)[C@H](Cc1ccccc1)NC(=O)[C@H](CCC(=O)O)NC(=O)[C@H](CCC(=O)O)NC(=O)[C@H](CC(=O)O)NC(=O)[C@H](CC(=O)O)NC(=O)[C@H](Cc1c[nH]cn1)NC(=O)[C@H](Cc1c[nH]c2ccccc12)NC(=O)[C@H](C)NC(=O)[C@@H](N)CCSC)NC(=O)CCCCCNC(=O)[C@H](CCCNC(=N)N)NC(=O)[C@H](CCCNC(=N)N)NC(=O)[C@H](CCCNC(=N)N)NC(=O)[C@H](CCCNC(=N)N)NC(=O)[C@H](C)NC(=O)[C@H](Cc1ccccc1)NC(=O)[C@H](CCC(=O)O)NC(=O)[C@H](CCC(=O)O)NC(=O)[C@H](CC(=O)O)NC(=O)[C@H](CC(=O)O)NC(=O)[C@H](Cc1c[nH]cn1)NC(=O)[C@H](Cc1c[nH]c2ccccc12)NC(=O)[C@H](C)NC(=O)[C@@H](N)CCSC)C(N)=O (stereo partly drawn) |  |  | C57BL/6 mouse female, ovary | dose not given, 3 h | reference: total | tissue distribution | 0.17% and 0.24% and 0.33% |
| CC(=O)NCCCC[C@@H]1NC(=O)[C@H](Cc2c[nH]c3c(C)cccc23)NC(=O)[C@H]([C@@H](C)O)NC(=O)[C@H](CC(N)=O)NC(=O)[C@@H](NC(C)=O)C(C)(C)SSC(C)(C)[C@@H](C(=O)N[C@@H](Cc2ccc(OCCN)cc2)C(=O)N[C@@H](Cc2ccc3ccccc3c2)C(=O)NC2(C(=O)N[C@@H](CCC(=O)O)C(=O)N[C@@H](CC(N)=O)C(=O)N[C@@H](Cc3cccnc3)C(=O)N(C)CC(N)=O)CCOCC2)NC1=O | Albumin (ALB, Homo sapiens, UniProt P02768) | equilibrium dialysis | purified human albumin | 0.01 µM |  | unbound fraction | 70.4 ± 4.1 % unbound |
| CCCC[C@H]1C(=O)N(C)[C@@H](CCCC)C(=O)N[C@@H](CCCNC(=O)CN2CCN(CC(=O)O)CCN(CC(=O)O)CCN(CC(=O)O)CC2)C(=O)N[C@H](C(=O)NCC(N)=O)CSCC(=O)N[C@@H](Cc2ccc(O)cc2)C(=O)N(C)[C@@H](C)C(=O)N[C@@H](CC(N)=O)C(=O)N2CCC[C@H]2C(=O)N[C@@H](Cc2c[nH]cn2)C(=O)N[C@@H](CC(C)C)C(=O)N(C)CC(=O)N[C@@H](Cc2c[nH]c3ccccc23)C(=O)N[C@@H](CO)C(=O)N[C@@H](Cc2c[nH]c3ccccc23)C(=O)N1C [gallium-68 labelled] |  |  | NOD/SCID mice, CHO-hPD-L1 xenograft, tumour over blood | iv, dose not given, 10 min | reference: tumour over blood | tissue-to-tissue ratio | 0.31 ± 0.06 |
| CN[C@H](CC(C)C)C(=O)N[C@H]1C(=O)N[C@@H](CC(N)=O)C(=O)N[C@H]2C(=O)N[C@H]3C(=O)N[C@H](C(=O)N[C@H](C(=O)O)c4cc(O)cc(O)c4-c4cc3ccc4O)[C@H](O)c3ccc(c(Cl)c3)Oc3cc2cc(c3O[C@@H]2O[C@H](CO)[C@@H](O)[C@H](O)[C@H]2O[C@H]2C[C@](C)(NCc3ccc(-c4ccc(Cl)cc4)cc3)[C@H](O)[C@H](C)O2)Oc2ccc(cc2Cl)[C@H]1O |  |  | mouse, plasma | intravenous, 10 mg/kg |  | Tmax | 4.98 min |
| CSCC[C@H](NC(=O)[C@@H](NC(=O)[C@H](CC(C)C)NC(=O)[C@@H](NC(=O)[C@H](Cc1c[nH]cn1)NC(=O)CCCCCNC(=O)[C@H](CCCNC(=N)N)NC(=O)[C@H](CCCNC(=N)N)NC(=O)[C@H](CCCNC(=N)N)NC(=O)[C@H](CCC(N)=O)NC(=O)[C@H](CCCNC(=N)N)NC(=O)[C@H](CCCNC(=N)N)NC(=O)[C@H](CCCCN)NC(=O)[C@H](CCCCN)NC(=O)[C@H](CCCNC(=N)N)NC(=O)CNC(=O)[C@@H](N)Cc1ccc(O)cc1)C(C)C)C(C)C)C(=O)N[C@@H](CS)C(=O)N[C@@H](C)C(=O)N[C@H](C(N)=O)[C@@H](C)O |  |  | C57BL/6J mice | Alzet osmotic pump, 3 mg/kg, 8 weeks |  | hematocrit | 41.7% and 37.9% and 26.8% |
| N#[11C]c1ccc(-c2csc(NN=C3CCCC3)n2)cc1 |  |  | C57BL/6 mice, male, bone | intravenous, 3 MBq, 30 min |  | radioactivity uptake | 0.74 ± 0.13 %ID/g |
| C[C@H](O)[C@@H](NC(=O)[C@H]1CCCN1C(=O)[C@@H](CCCCN)NC(=O)[C@@H](CO)NC(=O)[C@@H](Cc1ccc(O)cc1)NC(=O)[C@@H](CC(N)=O)NC(=O)CCOCCOCCOCCNC(=O)CN1CCN(CC(=O)O)CCN(CC(=O)O)CCN(CC(=O)O)CC1)C(=O)N[C@H](CC(=O)O)C(=O)N[C@H](CCCNC(=N)N)C(=O)N[C@H](CCC(N)=O)C(=O)N[C@H](Cc1ccc(O)cc1)C(=O)N[C@H](Cc1c[nH]cn1)C(=O)N[C@H](Cc1ccccc1)C(N)=O [gallium-68 labelled] |  |  | BALB/c nude mice U-87 MG tumour, stomach | intravenous, 1.85 MBq, 0.08333 h, radiolabelled |  | tissue uptake | 1.54 ± 0.1 %ID/g |

For quick reference, copied from above:
| SMILES | target or system | assay | test system | conditions | scale | measurement | value |
| --- | --- | --- | --- | --- | --- | --- | --- |
| CCN(Cc1ccccc1)C(=O)CCc1nc(CN2CCN(C(=O)Cc3ccc(OC)c(OC)c3)CC2)no1 |  | rotarod test | mouse, CCI neuropathic pain model | 5 mg/kg |  | time to fall | 1.56 ± 0.18 min |
